Experimental data gathered from unrelated publications.
Parts stem from different laboratories: compare values within a part only.

Series 1
Target: Phosphate system positive regulatory protein PHO4, full length, GST-tagged (PHO4, Saccharomyces cerevisiae, UniProt P07270, residues 1-312)
Method: competition protein-binding microarray
Molecule type: double-stranded DNA, one strand shown
Matrix: in vitro
Concentration: 2 µM
Setting: whole 60-bp probe, lowest competitor level
Added: Cbf1 competitor, 0.05 µM
Reading: higher = stronger binding
Construct (chain): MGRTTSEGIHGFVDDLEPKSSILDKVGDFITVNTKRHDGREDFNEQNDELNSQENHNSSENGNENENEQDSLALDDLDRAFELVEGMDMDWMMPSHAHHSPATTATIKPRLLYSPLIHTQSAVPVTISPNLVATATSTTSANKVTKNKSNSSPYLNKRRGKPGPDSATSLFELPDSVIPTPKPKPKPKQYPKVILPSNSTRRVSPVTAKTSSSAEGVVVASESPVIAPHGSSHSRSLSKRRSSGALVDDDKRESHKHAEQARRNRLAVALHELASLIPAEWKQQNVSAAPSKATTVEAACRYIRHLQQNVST
| Strand | fluorescence intensity [a.u.] |
| --- | --- |
| CAGCATTAGCTAAAACACGTTAATATGGTGGAGTCAGTCTTGATTCGCTTGACGCTGCTG | 6270 |
| GTCTTGTCTCATTGAAGTGTGGGTGTCCCCACTTCAGTCTTGATTCGCTTGACGCTGCTG | 5280 |
| ACATTGACGTATTTTCACGTGATGGGCCTCACTGCGGTCTTGATTCGCTTGACGCTGCTG | 11100 |

Series 2
Target: POU domain, class 5, transcription factor 1, POU domain (Pou5f1, Mus musculus, UniProt P20263, residues 131-289)
UniProt P20263, sequence (131-289, looked up): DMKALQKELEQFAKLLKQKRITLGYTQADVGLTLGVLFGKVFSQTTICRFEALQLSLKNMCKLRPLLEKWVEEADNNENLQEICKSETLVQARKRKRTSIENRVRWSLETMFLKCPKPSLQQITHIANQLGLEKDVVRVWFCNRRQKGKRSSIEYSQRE
Method: Spec-seq
Molecule type: double-stranded DNA, one strand shown
Matrix: in vitro
Concentration: not given
Setting: whole probe, mean of replicates
Baseline: not given
Reading: lower = stronger binding
| Strand | relative binding energy [ln ratio] |
| --- | --- |
| GAGTCGTCTCGTCAGCACATAAAAATCCGTAGAGCACTCAGGTC | -0.0231 |
| GAGTCGTCTCGTCAGCACATGCGTGACCGTAGAGCACTCAGGTC | 0.0938 |
| GAGTCGTCTCGTCAGCACATTTCGATCCGTAGAGCACTCAGGTC | 0.461 |
| GAGTCGTCTCGTCAGCACATGTGAATCCGTAGAGCACTCAGGTC | -0.163 |

Series 3
Target: Histone acetyltransferase KAT6A, winged helix 2, GST fusion (KAT6A, Homo sapiens, UniProt Q92794, residues 85-181)
Method: protein binding microarray
Molecule type: double-stranded DNA, one strand shown
Matrix: in vitro
Concentration: not given
Setting: 8-mer, flanks averaged, mean of 2 arrays, mostly near background
Baseline: not given
Reading: higher = stronger binding
Construct (chain): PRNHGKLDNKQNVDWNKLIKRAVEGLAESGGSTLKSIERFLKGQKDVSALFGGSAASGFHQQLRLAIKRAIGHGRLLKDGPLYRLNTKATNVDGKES
| Strand | E-score |
| --- | --- |
| AGTAGGCG | 0.00517 |
| CGCAGCCA | 0.144 |
| CATTGACG | -0.0389 |
| GATATCAC | -0.0631 |
| GCCTCCCC | 0.116 |

Other studies, line by line
| Molecule | target | test | system | setting | how to read | quantity | value |
| --- | --- | --- | --- | --- | --- | --- | --- |
| PhoQ, residues 284 288 289 292 302 303 GASLAW | PhoP, residues 12 14 15 18 19 LHTVM (Escherichia coli, UniProt P23836) | Sort-seq, item: YFP reporter | E. coli | PhoQ-PhoP variant library, added: 10 µM Mg2+ | baseline: high Mg2+ state, higher = stronger signaling | fold induction | 12.1 |

A few entries again (series 2):
| Strand | relative binding energy [ln ratio] |
| --- | --- |
| GAGTCGTCTCGTCAGCACATAAAAATCCGTAGAGCACTCAGGTC | -0.0231 |
